Assay results pooled from the literature.
Each line is one published result; not all experiments were run side by side. Values joined by “and” are separate records of one study, mostly repeats; a detail may differ.

SMILES	tested on	assay	test system	setting	how to read	measurement	result
O=C(NS(=O)(=O)c1cccs1)c1cc2ccccc2n1Cc1ccc(Br)c2ccccc12			KM mouse, chronic hyperuricaemia model	dose not given, day 28		body weight	38.2 g and 40.8 g and 36.2 g and 39.2 g and 37.8 g and 38 g
C=CC(=O)Nc1cc(Nc2nccc(-c3c[nH]c4ccccc34)n2)c(OC)cc1N(C)CCN(C)C			human plasma	72 h, storage stability, LLOQ sample		recovery	51.2%
Cc1ncsc1-c1ccc(C(C)NC(=O)C2CC(O)CN2C(=O)C(NC(=O)CCCCCCCCCCN2CCCC(Nc3ncc(Cl)c(Nc4ccccc4S(=O)(=O)C(C)C)n3)C2)C(C)(C)C)cc1 (stereo not shown)	22Rv1	RNA-seq, refers to: ZSCAN29 mRNA		concentration not given	relative to: DMSO	log2 fold change	-1.44
CC(C)(O)c1ncc([S@](N)(=O)=NC(=O)Nc2c3c(cc4c2CCC4)CCC3)s1		refers to: general and administration-site disorders	healthy human volunteers	oral, 25 mg twice daily, 14 days, enteric-coated tablet		subjects with adverse events	38%
COc1ccc(C2CC(Nc3ccc(-c4ccc(NC5=NN(C(C)=O)C(c6ccc(OC)cc6)C5)cc4)cc3)=NN2C(C)=O)cc1 (stereo not shown)		shake flask UV/Vis	n-octanol/water			logP	6.36
COc1cccc(OC)c1-c1cc(C(=O)NC2(C(=O)O)C3CC4CC(C3)CC2C4)nn1-c1ccc(C(=O)N(C)CCOCCN(C)C(=O)[C@H](CCCCNC(=O)[C@H](CC(C)C)NC(=O)C2OC2C(=O)O)NC(=O)CN2CCN(CC(=O)[O-])CCN(CC(=O)[O-])CCN(CC(=O)[O-])CC2)cc1C(C)C.[177Lu+3] (mixture of isomers)			mouse HT-29 xenograft	24 h, biodistribution	relative to: tumour over small intestine	tumour-to-small intestine ratio	15.8
C=C[C@]1(C)C[C@@H](OC(=O)CSc2ccc(NC(=O)c3ccco3)cc2)[C@]2(C)[C@H](C)CC[C@]3(CCC(=O)[C@H]32)[C@@H](C)[C@@H]1O			Mycoplasma gallisepticum-infected chickens, plasma	intramuscular, 40 mg/kg, 4 h		plasma concentration	458 ng/mL and 506 ng/mL and 352 ng/mL and 240 ng/mL and 176 ng/mL and 523 ng/mL and 247 ng/mL and 266 ng/mL
COc1ccc(C(=O)c2c(C(=O)NCCCN(C)C)oc3ccc(Cl)cc3c2=O)cc1OC			C57BL/6 mice, male, brain	oral, 5 mg/kg		AUC extrapolated share	24%
CCCCN1C(=O)c2cccc3c(NCCCCCCCCN4CCOCC4)ccc(c23)C1=O			dioxane			fluorescence lifetime	10.5 ns
CCN(CC)c1ccc(-c2oc3cc4ccccc4cc3c(=O)c2O)cc1			DMSO			CO release quantum yield	~0.6%
O=C(Nc1cnccc1-c1ccc([18F])nc1)c1ccnc(NC(=O)C2CC2)c1		ex vivo gamma counting	GSK-3β transgenic mice, early-stage, salivary gland	intravenous, 120 min, mean, P-gp inhibitor pretreatment, together with: tariquidar 15 mg/kg iv		SUV	0.215
CCCCCCCCCCCCCC(=O)N[C@@H](Cc1ccccc1)C(=O)N[C@H](C(=O)N[C@@H](CCC(=O)O)C(=O)N[C@H](C(=O)N1CCC[C@H]1C(=O)N[C@H](C(=O)N[C@H](C(=O)O)[C@@H](C)CC)[C@@H](C)O)[C@@H](C)CC)[C@@H](C)O						solubility limit	≤ 200 µM
C=C(NC(=O)c1csc(-c2nc3c(cc2O)-c2nc(cs2)C(=O)NC(C(C)O)C(=O)NC(=C(C)OC)c2nc(cs2)C(=O)NC2c4nc(cs4)C(=O)NC(COC(=O)c4c5c6c(cccc6n4O)COC(=O)C(OC4CC(C)(O)C(N(C)C)C(C)O4)C2OC5)c2nc-3cs2)n1)C(N)=O (stereo not shown)			cynomolgus monkey, female, plasma	intravenous infusion, 1.5 mg/kg twice daily, 0 to 30 h		AUC(0-last)	26300 ng·h/mL

For quick reference, copied from above:
SMILES	tested on	assay	test system	setting	how to read	measurement	result
CC(C)(O)c1ncc([S@](N)(=O)=NC(=O)Nc2c3c(cc4c2CCC4)CCC3)s1		refers to: general and administration-site disorders	healthy human volunteers	oral, 25 mg twice daily, 14 days, enteric-coated tablet		subjects with adverse events	38%
CCN(CC)c1ccc(-c2oc3cc4ccccc4cc3c(=O)c2O)cc1			DMSO			CO release quantum yield	~0.6%
